Measured values from different studies.
Numbered parts are unrelated; each lists some results of a single study.
UniProt Q8WU08, sequence (whole entry, looked up): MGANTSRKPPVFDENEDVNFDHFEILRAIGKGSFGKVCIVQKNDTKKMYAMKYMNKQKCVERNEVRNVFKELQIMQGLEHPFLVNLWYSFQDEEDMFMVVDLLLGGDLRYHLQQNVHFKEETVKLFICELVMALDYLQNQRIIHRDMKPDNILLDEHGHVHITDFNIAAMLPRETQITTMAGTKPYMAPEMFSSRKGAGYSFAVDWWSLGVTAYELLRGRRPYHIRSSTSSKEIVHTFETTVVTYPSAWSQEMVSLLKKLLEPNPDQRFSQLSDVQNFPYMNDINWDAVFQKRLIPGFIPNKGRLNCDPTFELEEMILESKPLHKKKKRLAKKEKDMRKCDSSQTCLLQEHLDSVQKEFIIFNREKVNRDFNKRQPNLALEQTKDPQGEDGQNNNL
UniProt Q96Q40, sequence (whole entry, looked up): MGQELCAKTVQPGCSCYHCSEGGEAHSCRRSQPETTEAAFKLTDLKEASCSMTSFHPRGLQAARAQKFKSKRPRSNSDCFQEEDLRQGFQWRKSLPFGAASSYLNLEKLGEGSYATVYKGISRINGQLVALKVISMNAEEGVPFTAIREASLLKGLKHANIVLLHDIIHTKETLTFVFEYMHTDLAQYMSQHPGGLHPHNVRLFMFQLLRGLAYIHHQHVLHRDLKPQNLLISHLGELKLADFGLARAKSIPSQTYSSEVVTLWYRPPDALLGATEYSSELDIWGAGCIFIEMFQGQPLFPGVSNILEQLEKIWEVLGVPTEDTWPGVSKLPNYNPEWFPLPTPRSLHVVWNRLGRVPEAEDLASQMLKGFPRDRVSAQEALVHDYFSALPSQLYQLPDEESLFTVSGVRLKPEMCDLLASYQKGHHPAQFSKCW
UniProt P51812, sequence (whole entry, looked up): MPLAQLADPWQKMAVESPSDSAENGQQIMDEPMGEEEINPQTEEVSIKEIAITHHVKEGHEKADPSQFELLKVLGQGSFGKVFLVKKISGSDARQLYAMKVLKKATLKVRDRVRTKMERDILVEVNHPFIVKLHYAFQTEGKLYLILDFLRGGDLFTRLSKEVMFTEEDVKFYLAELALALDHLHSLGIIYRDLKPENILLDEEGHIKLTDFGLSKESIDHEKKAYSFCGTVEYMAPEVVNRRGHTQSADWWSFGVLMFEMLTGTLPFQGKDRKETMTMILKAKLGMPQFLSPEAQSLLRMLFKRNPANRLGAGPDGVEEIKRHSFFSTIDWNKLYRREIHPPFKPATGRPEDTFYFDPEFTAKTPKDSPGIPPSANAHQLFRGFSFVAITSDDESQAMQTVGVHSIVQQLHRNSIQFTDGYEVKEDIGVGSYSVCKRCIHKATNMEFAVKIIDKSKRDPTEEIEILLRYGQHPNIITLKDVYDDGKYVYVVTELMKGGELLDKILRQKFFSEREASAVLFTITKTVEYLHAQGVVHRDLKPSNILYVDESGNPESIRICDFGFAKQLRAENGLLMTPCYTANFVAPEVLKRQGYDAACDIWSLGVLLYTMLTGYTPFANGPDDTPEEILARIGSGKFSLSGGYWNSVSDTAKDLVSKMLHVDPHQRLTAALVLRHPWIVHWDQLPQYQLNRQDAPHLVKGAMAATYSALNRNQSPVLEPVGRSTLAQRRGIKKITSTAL

Set 1 — effect on: cell-free assay; method: competition with immobilised ligand; concentration: 1 µM
Structure (SMILES): CN(C)C(=O)Cn1cc(-c2nc([C@@](C)(c3ccc(-c4cnc(N)nc4)cc3)C3CC3)no2)cn1
For Cyclin-dependent kinase 15 (CDK15, Homo sapiens, UniProt Q96Q40): remaining binding read 94%.
It gave 83% for remaining binding (Serine/threonine-protein kinase 32A (STK32A, Homo sapiens, UniProt Q8WU08)).
For Ribosomal protein S6 kinase alpha-3, C-terminal kinase domain (RPS6KA3, Homo sapiens, UniProt P51812): remaining binding read 100%.

Set 2 — method: RNA Bind-n-Seq; form: RNA; medium: in vitro; concentration: 1 µM; notes: whole 134-nt RNA, ends assumed; with: 150 mM KCl; reference: input library; reading: higher = stronger binding
Target: Ras GTPase-activating protein-binding protein 1, RRM domain (G3BP1, Homo sapiens, UniProt Q13283)
UniProt Q13283, sequence (whole entry, looked up): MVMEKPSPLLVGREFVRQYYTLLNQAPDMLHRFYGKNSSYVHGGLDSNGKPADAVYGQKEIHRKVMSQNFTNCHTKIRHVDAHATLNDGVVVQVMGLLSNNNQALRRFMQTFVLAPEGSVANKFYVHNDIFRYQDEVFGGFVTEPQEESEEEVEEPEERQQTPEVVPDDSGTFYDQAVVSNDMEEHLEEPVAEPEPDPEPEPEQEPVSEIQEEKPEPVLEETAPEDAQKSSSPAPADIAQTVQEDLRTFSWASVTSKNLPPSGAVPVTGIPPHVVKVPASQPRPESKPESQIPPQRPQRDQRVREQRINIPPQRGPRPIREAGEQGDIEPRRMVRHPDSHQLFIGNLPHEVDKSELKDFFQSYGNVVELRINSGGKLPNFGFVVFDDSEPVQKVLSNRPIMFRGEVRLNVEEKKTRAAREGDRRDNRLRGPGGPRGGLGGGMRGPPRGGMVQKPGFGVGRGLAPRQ
All sequences stand within: GGGAGUUCUACAGUCCGACGAUC … UGGAAUUCUCGGGUGUCAAGG
For `AGUCCUGUGCUACACAUCGUAUGUACCGAAUCGGAAAAAAAGGUUUUUUUGGAAAGGAAAGUAUUAUGUUACGCCGUUCGGAUCUGCACU`, the log2 enrichment was -0.346.
For `CACAGCCAACACGCACCCACACAGACACAGAGGGAAGGGGUUGGGAUGGGGACAGGGUGCACAGCAGGGCGGGGUAGGACCCCAGCCCCU`, the log2 enrichment was -0.103.
For `CCUCAAGUCCUGUGCUACACAUCGUAUGUACCGAAUCGGCGGGCGGGGCGGGAAAGUAUUAUGUUACGCCGUUCGGAUCUGCACUUCCAG`, the log2 enrichment was -0.174.
The log2 enrichment of `GCAGGAAGUAAAAACAAAUGGAAAUGCUUCGGAUAGUGGCAGGGGUGGGGGUUGCUAAGGAAAGGGUGGGAUGGGAGUGGGUAAAAAGUU` is reported as 1.18.
`UCCUCAAGUCCUGUGCUACACAUCGUAUGUACCGAAUCGGCGGGCGGGCGGGAAAGUAUUAUGUUACGCCGUUCGGAUCUGCACUUCCAG` has a log2 enrichment of 0.101.
For `UUUUAAUUUGUUUGUCUCUCAUGAAACUAUGGUCUUUUAAAAAUUAAAGGUUUUUUUUUUCCCCUUAGACGAAACUGCAAAGGAAAUCCG`, the log2 enrichment was -0.824.
`AGUCCUGUGCUACACAUCGUAUGUACCGAAUCGGGAAAGGGAAAAAGGGAAAAAGGGAAAGUAUUAUGUUACGCCGUUCGGAUCUGCACU` gave a log2 enrichment of 0.373.
With `CAAGUCCUGUGCUACACAUCGUAUGUACCGAAUCGGGGAGGGGUUUGGGGAGGGGAAAGUAUUAUGUUACGCCGUUCGGAUCUGCACUUC` the log2 enrichment was 1.14.

Set 3 — method: universal PBM; form: double-stranded DNA, one strand shown; medium: in vitro; concentration: 600 nM; reading: higher = stronger binding
Target: Sal-like protein 4, full length isoform A (SALL4, Homo sapiens, UniProt Q9UJQ4, residues 1-1053)
UniProt Q9UJQ4, sequence (whole entry, looked up): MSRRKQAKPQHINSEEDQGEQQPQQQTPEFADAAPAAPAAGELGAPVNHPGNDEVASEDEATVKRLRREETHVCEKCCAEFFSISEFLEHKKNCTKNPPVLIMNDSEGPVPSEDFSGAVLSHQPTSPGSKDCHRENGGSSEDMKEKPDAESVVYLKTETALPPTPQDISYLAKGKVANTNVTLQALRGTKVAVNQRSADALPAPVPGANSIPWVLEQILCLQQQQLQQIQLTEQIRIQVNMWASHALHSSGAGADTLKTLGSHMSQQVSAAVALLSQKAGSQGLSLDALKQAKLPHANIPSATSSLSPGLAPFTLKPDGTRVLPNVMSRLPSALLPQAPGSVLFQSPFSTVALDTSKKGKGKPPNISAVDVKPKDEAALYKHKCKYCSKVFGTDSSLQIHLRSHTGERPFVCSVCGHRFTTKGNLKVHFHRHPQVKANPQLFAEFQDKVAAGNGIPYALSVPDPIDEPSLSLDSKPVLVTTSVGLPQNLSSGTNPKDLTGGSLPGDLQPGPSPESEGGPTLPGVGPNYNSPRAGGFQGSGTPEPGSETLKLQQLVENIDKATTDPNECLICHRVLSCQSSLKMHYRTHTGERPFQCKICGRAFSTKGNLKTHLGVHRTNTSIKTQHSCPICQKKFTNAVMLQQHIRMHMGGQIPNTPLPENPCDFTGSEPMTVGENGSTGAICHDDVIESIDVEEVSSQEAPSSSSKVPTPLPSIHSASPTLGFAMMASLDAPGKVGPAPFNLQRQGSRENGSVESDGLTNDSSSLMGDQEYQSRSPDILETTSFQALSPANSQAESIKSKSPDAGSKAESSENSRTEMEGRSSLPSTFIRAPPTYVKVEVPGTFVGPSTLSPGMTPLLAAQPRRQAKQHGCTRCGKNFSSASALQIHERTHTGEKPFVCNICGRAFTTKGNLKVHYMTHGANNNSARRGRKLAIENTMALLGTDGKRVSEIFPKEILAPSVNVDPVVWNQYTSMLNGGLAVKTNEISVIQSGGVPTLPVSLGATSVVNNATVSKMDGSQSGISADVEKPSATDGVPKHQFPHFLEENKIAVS
Notes: 8-mer, flanks averaged, mean of replicates
`CAATAGGC` gave an E-score of 0.0386.
With `GTTATGTA` the E-score was 0.237.
`CTTGGGAA` has an E-score of -0.00965.
The E-score of `AGGTGTTA` is reported as 0.0656.
`AGGCATCC` gave an E-score of -0.122.
The E-score of `AAACATTA` is reported as 0.299.
For `CATACTCG`, the E-score was -0.0211.
`GAAAGTTC` gave an E-score of -0.033.

Mixed results
For `CCC[C@@H]1NC(=O)CSC[C@@H](C(=O)OCC)N(C)C(=O)[C@H](CC(C)C)NC(=O)[C@H](C)N(C)C(=O)[C@@H](CC(C)C)NC(=O)[C@H](C)N(C)C(=O)[C@H]2CCCN2C(=O)[C@H](CC(C)C)NC(=O)CN(CCC)C1=O`, the logD was 0.862 (hydrocarbon/water).

Some of these lines once more (set 1):
For Cyclin-dependent kinase 15 (CDK15, Homo sapiens, UniProt Q96Q40): remaining binding read 94%.
It gave 83% for remaining binding (Serine/threonine-protein kinase 32A (STK32A, Homo sapiens, UniProt Q8WU08)).
